Measured values pooled from the literature.
Each numbered part is a random draw from the data of one study; scales do not carry over between parts.

Study 1 — technique: RNA Bind-n-Seq; form: RNA; medium: in vitro; tested at: 365 nM; baseline: no-protein control; direction: higher = stronger binding; measurement: RBNS enrichment (R)
Target: RNA binding protein fox-1 homolog 2, RRM domain, GST-SBP tag (RBFOX2, Homo sapiens, UniProt O43251-10, residues 100-194)
Setting: natural RNA segment, single round, ends assumed
Constant ends, left off below: GGGAGUUCUACAGUCCGACGAUC … UGGAAUUCUCGGGUGCCAA
Residues (chain): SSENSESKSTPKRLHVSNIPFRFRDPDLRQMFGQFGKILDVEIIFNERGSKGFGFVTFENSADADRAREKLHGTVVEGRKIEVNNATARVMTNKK
GUUGGGAUACACCUAUUAUCCCCUAAAAACAUACAAAUAAUGCAAAAGGAUGAUGGAGCUUCCUGGUGUCGGGUGAACAUGUUUUAAAAACUCAUUGUUCUAGUGAAGAU: 0.454
AGACUUUUGCCAAAGCUCUUAUUUUUUUUCUAAAUCUCUCCAGAAAAAAAUUGCAAGUGAUUAGAUUCAAUUAUUGAUUUAUUUACUUCUACUUUGUAUCCAUGACUUCU: 0.782
AGAUGUUUAAAAUGCUUUUGUAUUUACUGCCAUGUAAUUGAAAUAUAUAGAUUAUUGUAACCUUUCAACCUGAAAAUCAAGCAGUAUGAGAGUUUAGUUAUUUGUAUGUG: 0.482
GAUAGAAAAAUCCUUGUUUAUUCUUCUUGCUGCCUGGCUUUAAUAAAUAUUUCAGAUGCCUCACAGUAAGUUCACUCCUUUCCAUACUGAGGAAACAAGAAAAGAAGAAG: 0.268
GGUGCUUCACACACCAUUUAGGAGGCCACCCUAACGAGGCAAGAGGACAUGGGGGUGUGCAGAAGUUCUGUUCUUAGUGAGAAUGGCUGGCCUGAGAAUCCAGCUCACCU: 0.657
UUAUAGGCAGUCACUAUAAAUUAUAAUUGUGGGCACUAGCAAUAUACAUAACAGAAGAAACAACAAUAAGGAUACAAUUGUAUAUAAACACCUACUAUAACAUCCAUGUG: 0.474
AGAGAAGAAUGGGGACAACAGAAACCUGCUUUGUAGGGGAUUAUGUAGACUAAAAGCCUAGAAGUUCUGCCCACAUCCUUAUGACGCAGCCAAUCUGGAGCUUCAUGUUU: 0.501
CUGACCCUUGAGUUAAUUUUAGCACAACUCAUUCUUCAGUGCCUCAUUAUGAAAGACAAAAAGCAUCACAAUAAGGCUUCCAGGUAGCCCUGUUCCCUAAUAGAAACAUU: 0.548

Study 2 — technique: RNA Bind-n-Seq; form: RNA; medium: in vitro; tested at: 1 µM; setting: whole 134-nt RNA, ends assumed; with: 150 mM KCl; baseline: input library; direction: higher = stronger binding; measurement: log2 enrichment
Target: Ras GTPase-activating protein-binding protein 1, RRM domain (G3BP1, Homo sapiens, UniProt Q13283)
UniProt Q13283, sequence (whole entry, looked up): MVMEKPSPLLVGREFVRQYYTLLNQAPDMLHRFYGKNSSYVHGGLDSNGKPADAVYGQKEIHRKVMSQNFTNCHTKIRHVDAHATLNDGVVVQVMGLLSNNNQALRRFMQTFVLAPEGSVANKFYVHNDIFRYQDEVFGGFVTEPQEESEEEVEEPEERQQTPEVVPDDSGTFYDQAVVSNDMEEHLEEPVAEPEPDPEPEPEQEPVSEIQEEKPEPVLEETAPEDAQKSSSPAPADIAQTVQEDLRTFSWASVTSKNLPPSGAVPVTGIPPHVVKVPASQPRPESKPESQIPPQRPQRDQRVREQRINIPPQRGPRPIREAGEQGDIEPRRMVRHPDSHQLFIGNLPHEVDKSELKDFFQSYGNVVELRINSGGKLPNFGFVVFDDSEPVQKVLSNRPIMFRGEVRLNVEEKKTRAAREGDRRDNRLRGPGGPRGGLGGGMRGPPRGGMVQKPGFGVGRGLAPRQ
Constant ends, left off below: GGGAGUUCUACAGUCCGACGAUC … UGGAAUUCUCGGGUGUCAAGG
ACCAUGCAGGUGGGCAUCUUUGGGAAGUGGGGCAAAAAGGGGAUAGGGAGGGGGGUAACACUUUGGGAACAGGUGGUCCCAGGUCGUUUC: -0.401
CACAGACAACACGCACCCACACAGACACAGAGGGAAGGGGUUGGGAUGGGGACAGGGUGCACAGCAGGGCGGGGUAGAAACCCAGCCCCU: -0.0849
UCAAGUCCUGUGCUACACAUCGUAUGUACCGAAUCGGGUUUGGUUUGGGUUUGGGAAAGUAUUAUGUUACGCCGUUCGGAUCUGCACUUC: -0.385
CUGUGCUACACAUCGUAUGUACCGAAUCGGGGAAAAAAAGGGGAAAGGGGAAAAAAAGGGGAAAGUAUUAUGUUACGCCGUUCGGAUCUG: 0.512
UAACUUUAGAGGAGGAUCUGAUGGAUAUGGCAGUGGACGUGGAUUUGGGGAUGGCUAUAAUGGGUAUGGAGGAGGACCUGCAGGUGGCAA: -0.453

Study 3 — technique: competition protein-binding microarray; form: double-stranded DNA, one strand shown; medium: in vitro; tested at: 2 µM; with: Pho4 competitor, 0.05 µM; direction: higher = stronger binding; measurement: fluorescence intensity; constant ends, left off below: … GTCTTGATTCGCTTGACGCTGCTG
Target: Centromere-binding protein 1, full length, His-tagged (CBF1, Saccharomyces cerevisiae, UniProt P17106, residues 1-351)
UniProt P17106, sequence (whole entry, looked up): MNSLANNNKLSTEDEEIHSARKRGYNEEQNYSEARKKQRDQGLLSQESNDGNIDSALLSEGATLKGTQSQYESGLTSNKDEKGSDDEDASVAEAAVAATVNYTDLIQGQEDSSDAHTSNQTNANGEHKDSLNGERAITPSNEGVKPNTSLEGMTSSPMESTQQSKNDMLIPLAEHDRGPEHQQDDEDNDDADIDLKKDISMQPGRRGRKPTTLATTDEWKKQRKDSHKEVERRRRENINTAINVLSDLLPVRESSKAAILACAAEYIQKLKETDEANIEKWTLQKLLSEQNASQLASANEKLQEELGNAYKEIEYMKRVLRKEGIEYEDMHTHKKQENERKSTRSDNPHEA
Setting: whole 60-bp probe, lowest competitor level
TCTTCCAGCCTGGGTCCCGTGCGGAAGGGCGGCGGA: 143 a.u.
GTCTTGTCTCATTCCCACGTGTTTTTCCCCACTTCA: 773 a.u.
AAAGCGGTAATTTGATGGGTGGGTGCAGATATCTAT: 73.1 a.u.
AAAGAGGGTCCATTCGGCGTGCTTTTGGTACTGTGA: 60.9 a.u.
AGGACGACTGCTTTACTCGTGAAAATGGAACACAAG: 108 a.u.
TGGGTACAAAGCAGTGTCGTGCTTTTCCAAGGCATC: 64.6 a.u.
CGTCCTAGTGATTGTCGTGTGGGTGCCATGAGGAAG: 94.7 a.u.
GCTATACGACAGCTGCATGATCAAGTGCCGCTTGTC: 97.7 a.u.
CGGGGTTAAGTTTCTCACGTGTTTTGCTTGCAGCAG: 970 a.u.

Further values, each from its own experiment
PhoQ, residues 284 288 289 292 302 303 SSCLAV  fold induction (PhoP, residues 12 14 15 18 19 LWHSL (Escherichia coli, UniProt P23836); Sort-seq, refers to: YFP reporter; E. coli; PhoQ-PhoP variant library, with: 10 µM Mg2+; baseline: high Mg2+ state, higher = stronger signaling): 18.6

Repeated from above (study 3):
AAAGAGGGTCCATTCGGCGTGCTTTTGGTACTGTGA: 60.9 a.u.
GCTATACGACAGCTGCATGATCAAGTGCCGCTTGTC: 97.7 a.u.
AAAGCGGTAATTTGATGGGTGGGTGCAGATATCTAT: 73.1 a.u.
